Results from different studies.
Protocols differ between the studies behind these lines. ± marks the error that the study gave.
Concentration: concentration not given
Histone chaperone ASF1A: Histone chaperone ASF1A (Homo sapiens, UniProt Q9Y294)
UniProt Q9Y294, sequence (whole entry, looked up): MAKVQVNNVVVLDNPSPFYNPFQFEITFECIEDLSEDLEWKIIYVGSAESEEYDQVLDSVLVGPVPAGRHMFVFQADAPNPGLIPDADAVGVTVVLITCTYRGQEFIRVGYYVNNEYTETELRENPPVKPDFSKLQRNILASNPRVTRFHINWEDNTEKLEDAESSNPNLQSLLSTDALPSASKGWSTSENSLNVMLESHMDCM
lecA: PA-I galactophilic lectin (lecA, Pseudomonas aeruginosa, UniProt Q05097)
UniProt Q05097, sequence (whole entry, looked up): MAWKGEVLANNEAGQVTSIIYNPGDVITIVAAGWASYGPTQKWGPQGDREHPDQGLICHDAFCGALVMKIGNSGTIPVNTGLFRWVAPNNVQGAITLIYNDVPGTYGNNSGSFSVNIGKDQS
UniProt P50750, sequence (whole entry, looked up): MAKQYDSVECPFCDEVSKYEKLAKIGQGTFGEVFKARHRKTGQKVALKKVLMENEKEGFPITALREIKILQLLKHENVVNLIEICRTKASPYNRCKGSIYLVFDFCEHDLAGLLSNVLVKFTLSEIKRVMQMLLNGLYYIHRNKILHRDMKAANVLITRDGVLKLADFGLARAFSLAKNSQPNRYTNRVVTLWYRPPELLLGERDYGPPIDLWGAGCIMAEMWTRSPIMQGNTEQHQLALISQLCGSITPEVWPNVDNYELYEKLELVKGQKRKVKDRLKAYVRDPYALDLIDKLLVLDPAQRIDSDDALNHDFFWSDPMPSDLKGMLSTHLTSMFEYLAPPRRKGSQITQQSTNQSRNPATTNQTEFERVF
UniProt P12004, sequence (whole entry, looked up): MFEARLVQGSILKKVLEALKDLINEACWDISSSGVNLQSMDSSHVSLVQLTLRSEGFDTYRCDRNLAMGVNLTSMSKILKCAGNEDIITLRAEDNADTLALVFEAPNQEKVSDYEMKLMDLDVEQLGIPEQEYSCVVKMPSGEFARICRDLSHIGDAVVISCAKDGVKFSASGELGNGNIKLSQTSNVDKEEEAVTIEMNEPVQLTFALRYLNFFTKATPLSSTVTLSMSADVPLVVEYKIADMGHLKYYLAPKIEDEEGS

The binding stoichiometry of `CC[C@H](C)[C@H](NC(=O)[C@H](CCCNC(=N)N)NC(=O)NC[C@H](CCC(N)=O)NC(=O)NC[C@H](CCc1ccccc1)NC(=O)NC[C@H](CCCNC(=N)N)NC(=O)NC[C@H](Cc1ccc2ccccc2c1)NC(=O)[C@H](CCCCN)NC(=O)[C@H](CCC(=O)O)NC(C)=O)C(=O)N[C@@H](C)C(N)=O` is reported as 1.4 ± 0.2 (Histone chaperone ASF1A; isothermal titration calorimetry; pH 7.5, 20 °C).
With `O=C(COCCCc1ccccc1)N[C@@H](Cc1cn(CCNC(=O)c2ccc(S[C@@H]3O[C@H](CO)[C@H](O)[C@H](O)[C@H]3O)cc2)nn1)C(=O)NCCO` the binding stoichiometry was 1 (lecA; isothermal titration calorimetry).
`CC[C@H](C)[C@H](NC(=O)[C@H](CCCNC(=N)N)NC(=O)NC[C@H](CCC(N)=O)NC(=O)NC[C@H](CC(C)C)NC(=O)NC[C@H](CCCNC(=N)N)NC(=O)NC[C@H](CCc1ccccc1)NC(=O)[C@H](CCCCN)NC(=O)[C@H](CCC(=O)O)NC(C)=O)C(=O)N[C@@H](C)C(N)=O` gave a binding stoichiometry of 1 ± 0.1 (Histone chaperone ASF1A; isothermal titration calorimetry; pH 7.5, 20 °C).
`OC[C@H]1O[C@@H](Oc2ccc(-c3cn([C@H]4[C@H](O)[C@@H](O)[C@H](c5cn([C@H]6[C@H](O)[C@@H](O)[C@H](n7cc(-c8ccc(O[C@@H]9O[C@H](CO)[C@H](O)[C@H](O)[C@H]9O)cc8)nn7)O[C@@H]6CO)nn5)O[C@@H]4CO)nn3)cc2)[C@H](O)[C@@H](O)[C@H]1O` gave a binding stoichiometry of 0.46 ± 0.01 (lecA; isothermal titration calorimetry; 25 °C).
For `O=C(COCc1ccccc1)N[C@@H](Cc1cn(CCNC(=O)c2ccc(S[C@@H]3O[C@H](CO)[C@H](O)[C@H](O)[C@H]3O)cc2)nn1)C(=O)NCCO`, the binding stoichiometry was 1 ± 0.1 (lecA; isothermal titration calorimetry).
The binding stoichiometry of `CC[C@H](C)[C@H](NC(=O)[C@H](CCCNC(=N)N)NC(=O)[C@H](CCCNC(=N)N)NC(=O)[C@H](C)NC(=O)[C@H](CC(C)C)NC(=O)[C@H](CCCNC(=N)N)NC(=O)[C@H](C)NC(=O)[C@H](Cc1c[nH]c2ccccc12)NC(=O)[C@H](CCCCN)NC(=O)[C@H](CCC(=O)O)NC(C)=O)C(=O)N[C@@H](C)C(N)=O` is reported as 1 ± 0.1 (Histone chaperone ASF1A; isothermal titration calorimetry; pH 7.5, 20 °C).
For `CSCC[C@H](NC(=O)[C@H](CO)NC(=O)[C@@H](NC(=O)[C@H](CCC(N)=O)NC(=O)[C@@H](CCCNC(=N)N)NC(=O)[C@@H](CCCNC(=N)N)NC(=O)[C@@H](CCCCN)NC(=O)[C@@H](CCCNC(=N)N)NC(C)=O)[C@@H](C)O)C(=O)N[C@H](C(=O)N[C@@H](CC(=O)O)C(=O)N[C@@H](Cc1ccccc1)C(=O)N[C@@H](Cc1ccc(O)cc1)C(=O)N[C@@H](Cc1c[nH]cn1)C(=O)N[C@@H](CO)C(=O)N[C@H](CCCCN)C(=O)N[C@H](CCCNC(=N)N)C(=O)N[C@H](CCCNC(=N)N)C(N)=O)[C@@H](C)O`, the binding stoichiometry was 0.73 ± 0.01 (PCNA (Homo sapiens, UniProt P12004); isothermal titration calorimetry; pH 7.4, 25 °C, 400 mM NaCl, with: p21 peptide).
`CCCC[C@@H](CNC(=O)N[C@@H](CCC(N)=O)CNC(=O)N[C@@H](CCCNC(=N)N)C(=O)N[C@H](C(=O)N[C@@H](C)C(N)=O)[C@@H](C)CC)NC(=O)NC[C@H](CCCNC(=N)N)NC(=O)NC[C@H](Cc1ccc2ccccc2c1)NC(=O)[C@H](CCCCN)NC(=O)[C@H](CCC(=O)O)NC(C)=O` has a binding stoichiometry of 1.2 ± 0.1 (Histone chaperone ASF1A; isothermal titration calorimetry; pH 7.5, 20 °C).
`Clc1ccc2ccc3[n+](c2c1)[Ir-3]12([c]4ccccc4-3)([c]3ccccc3-c3ccc4ccc(Cl)cc4[n+]31)[n+]1ccccc1-c1cccc[n+]12.F[P-](F)(F)(F)(F)F` has a binding stoichiometry of 1.17 ± 0.05 (CDK9 (Homo sapiens, UniProt P50750); isothermal titration calorimetry; 25 °C).
For `OC[C@H]1O[C@@H](OCc2cn([C@@H]3O[C@H](CO)[C@@H](n4cc(-c5ccc(-c6cn([C@H]7[C@H](O)[C@@H](O)[C@H](n8cc(CO[C@@H]9O[C@H](CO)[C@H](O)[C@H](O)[C@H]9O)nn8)O[C@@H]7CO)nn6)cc5)nn4)[C@H](O)[C@H]3O)nn2)[C@H](O)[C@@H](O)[C@H]1O`, the binding stoichiometry was 0.41 ± 0.09 (lecA; isothermal titration calorimetry; 25 °C).
`[N-]=[N+]=NCCNC(=O)c1ccc(S[C@@H]2O[C@H](CO)[C@H](O)[C@H](O)[C@H]2O)cc1` has a binding stoichiometry of 0.9 (lecA; isothermal titration calorimetry).
`OC[C@H]1O[C@@H](Oc2ccc(OCc3cn([C@H]4[C@H](O)[C@@H](O)[C@H](c5cn([C@H]6[C@H](O)[C@@H](O)[C@H](n7cc(COc8ccc(O[C@@H]9O[C@H](CO)[C@H](O)[C@H](O)[C@H]9O)cc8)nn7)O[C@@H]6CO)nn5)O[C@@H]4CO)nn3)cc2)[C@H](O)[C@@H](O)[C@H]1O` gave a binding stoichiometry of 0.43 ± 0.01 (lecA; isothermal titration calorimetry; 25 °C).
With `CC[C@H](C)[C@H](NC(=O)[C@H](CCCNC(=N)N)NC(=O)NC[C@H](CCC(N)=O)NC(=O)NC[C@H](CC(C)C)NC(=O)NC[C@H](CCCNC(=N)N)NC(=O)NC[C@H](Cc1ccc2ccccc2c1)NC(=O)[C@H](CCCCN)NC(=O)[C@H](CCC(=O)O)NC(=O)[C@H](CCC(=O)O)NC(=O)[C@@H](NC(=O)[C@H](CO)NC(=O)[C@H](C)NC(C)=O)[C@@H](C)O)C(=O)N[C@@H](C)C(N)=O` the binding stoichiometry was 1.2 ± 0.2 (Histone chaperone ASF1A; isothermal titration calorimetry; pH 7.5, 20 °C).
With `O=C(COc1ccc(F)cc1)N[C@@H](Cc1cn(CCNC(=O)c2ccc(S[C@@H]3O[C@H](CO)[C@H](O)[C@H](O)[C@H]3O)cc2)nn1)C(=O)NCCO` the binding stoichiometry was 1 ± 0.2 (lecA; isothermal titration calorimetry).
With `COCCOCCOc1cc(-c2cn([C@H]3[C@H](O)[C@@H](O)[C@H](n4cc(-c5ccc(O[C@@H]6O[C@H](CO)[C@H](O)[C@H](O)[C@H]6O)cc5)nn4)O[C@@H]3CO)nn2)c(OCCOCCOC)cc1-c1cn([C@H]2[C@H](O)[C@@H](O)[C@H](n3cc(-c4ccc(O[C@@H]5O[C@H](CO)[C@H](O)[C@H](O)[C@H]5O)cc4)nn3)O[C@@H]2CO)nn1` the binding stoichiometry was 0.43 ± 0.03 (lecA; ITC; 5% DMSO).
`O=C(Cc1ccccc1O)N[C@@H](Cc1cn(CCNC(=O)c2ccc(S[C@@H]3O[C@H](CO)[C@H](O)[C@H](O)[C@H]3O)cc2)nn1)C(=O)NCCO` gave a binding stoichiometry of 0.9 ± 0.1 (lecA; isothermal titration calorimetry).
`OC[C@H]1O[C@@H](Oc2ccc(OCCc3cn([C@H]4[C@H](O)[C@@H](O)[C@H](c5cn([C@H]6[C@H](O)[C@@H](O)[C@H](n7cc(CCOc8ccc(O[C@@H]9O[C@H](CO)[C@H](O)[C@H](O)[C@H]9O)cc8)nn7)O[C@@H]6CO)nn5)O[C@@H]4CO)nn3)cc2)[C@H](O)[C@@H](O)[C@H]1O` gave a binding stoichiometry of 0.5 ± 0.01 (lecA; isothermal titration calorimetry; 25 °C).

A few entries again:
With `O=C(COCCCc1ccccc1)N[C@@H](Cc1cn(CCNC(=O)c2ccc(S[C@@H]3O[C@H](CO)[C@H](O)[C@H](O)[C@H]3O)cc2)nn1)C(=O)NCCO` the binding stoichiometry was 1 (lecA; isothermal titration calorimetry).
